Measured values pooled from the literature.
Lines come from different studies, so protocols differ.
Cell line: NCI-H322M

Structure (SMILES) | read-out | method | concentration | time | baseline | endpoint | result
CC(=O)OC[C@H]1O[C@@H](Sc2sc(C(=O)c3ccc(Br)cc3)c(N)c2-c2nc3ccccc3s2)[C@H](OC(C)=O)[C@@H](OC(C)=O)[C@@H]1OC(C)=O |  | SRB | 10 µM | 48 h | untreated | growth | 83.5%
COc1cc(CNC(=O)C[C@H](C)CCC=C(C)C)ccc1OCc1cn(-c2ccccc2)nn1 |  | SRB | 10 µM | 48 h |  | growth percent | 107%
CC(=O)OCC1(O)C(Nc2cccc(C(C)=O)c2)C(N)C(NC(=O)N(C)C)(C(C)OC(C)=O)C1(C)O (stereo not drawn) | cell growth or viability | SRB |  |  |  | GI50 | 0.48 µM
CC/C=C\C/C=C\C/C=C\C/C=C\C/C=C\C/C=C\CCC(=O)Nc1ccn(C2OC(CO)C(O)C2(F)F)c(=O)n1 (stereo not drawn) |  | NCI60 screen |  |  |  | TGI | 19 µM
CC(Cc1ccc(Cl)cc1)=C(c1ccc(Cl)cc1)c1ccc(OCCN(C)C)cc1 | cell growth or viability | SRB |  |  |  | GI50 | 5.03 µM
COc1cc(CNC(=O)C[C@H](C)CCC=C(C)C)ccc1OCc1cn(-c2cccc([N+](=O)[O-])c2)nn1 |  | SRB | 10 µM | 48 h |  | growth percent | 103%
CC(=O)c1cccc(NC2C(N)C(NC(=O)N(C)C)(C(C)O)C(O)C2(O)COC(=O)c2c(C)cccc2O)c1 (stereo not drawn) | cell growth or viability | SRB |  |  |  | GI50 | 0.016 µM
COc1cc(CNC(=O)C[C@H](C)CCC=C(C)C)ccc1OCc1cn(-c2ccccc2Cl)nn1 |  | SRB | 10 µM | 48 h |  | growth percent | 91.3%
CCC(=C(c1ccc(Cl)cc1)c1ccc(OCCCN(C)C)cc1)c1ccc(OC)cc1 | cell growth or viability | SRB |  |  |  | GI50 | 6.43 µM

A few entries again:
Structure (SMILES) | read-out | method | concentration | time | baseline | endpoint | result
CC/C=C\C/C=C\C/C=C\C/C=C\C/C=C\C/C=C\CCC(=O)Nc1ccn(C2OC(CO)C(O)C2(F)F)c(=O)n1 (stereo not drawn) |  | NCI60 screen |  |  |  | TGI | 19 µM
